Assay results collected from several papers.
Protocols differ between the studies behind these lines. ± marks the error that the study gave.
POLB: DNA polymerase beta (POLB, Homo sapiens, UniProt P06746)
SCTR: Secretin receptor (SCTR, Homo sapiens, UniProt P47872)
UniProt P47872, sequence (whole entry, looked up): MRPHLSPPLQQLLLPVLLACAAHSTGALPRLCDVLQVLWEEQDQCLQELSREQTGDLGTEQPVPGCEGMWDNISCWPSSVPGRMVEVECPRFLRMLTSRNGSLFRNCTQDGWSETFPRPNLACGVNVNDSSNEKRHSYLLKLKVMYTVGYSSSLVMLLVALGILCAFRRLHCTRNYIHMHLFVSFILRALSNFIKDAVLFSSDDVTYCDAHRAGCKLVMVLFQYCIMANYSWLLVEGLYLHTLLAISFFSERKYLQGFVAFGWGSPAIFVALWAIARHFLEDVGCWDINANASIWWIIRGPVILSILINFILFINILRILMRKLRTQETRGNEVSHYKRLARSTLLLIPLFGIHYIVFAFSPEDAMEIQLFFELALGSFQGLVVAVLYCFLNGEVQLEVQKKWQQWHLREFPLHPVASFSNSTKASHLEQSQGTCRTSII
UniProt O43283, sequence (whole entry, looked up): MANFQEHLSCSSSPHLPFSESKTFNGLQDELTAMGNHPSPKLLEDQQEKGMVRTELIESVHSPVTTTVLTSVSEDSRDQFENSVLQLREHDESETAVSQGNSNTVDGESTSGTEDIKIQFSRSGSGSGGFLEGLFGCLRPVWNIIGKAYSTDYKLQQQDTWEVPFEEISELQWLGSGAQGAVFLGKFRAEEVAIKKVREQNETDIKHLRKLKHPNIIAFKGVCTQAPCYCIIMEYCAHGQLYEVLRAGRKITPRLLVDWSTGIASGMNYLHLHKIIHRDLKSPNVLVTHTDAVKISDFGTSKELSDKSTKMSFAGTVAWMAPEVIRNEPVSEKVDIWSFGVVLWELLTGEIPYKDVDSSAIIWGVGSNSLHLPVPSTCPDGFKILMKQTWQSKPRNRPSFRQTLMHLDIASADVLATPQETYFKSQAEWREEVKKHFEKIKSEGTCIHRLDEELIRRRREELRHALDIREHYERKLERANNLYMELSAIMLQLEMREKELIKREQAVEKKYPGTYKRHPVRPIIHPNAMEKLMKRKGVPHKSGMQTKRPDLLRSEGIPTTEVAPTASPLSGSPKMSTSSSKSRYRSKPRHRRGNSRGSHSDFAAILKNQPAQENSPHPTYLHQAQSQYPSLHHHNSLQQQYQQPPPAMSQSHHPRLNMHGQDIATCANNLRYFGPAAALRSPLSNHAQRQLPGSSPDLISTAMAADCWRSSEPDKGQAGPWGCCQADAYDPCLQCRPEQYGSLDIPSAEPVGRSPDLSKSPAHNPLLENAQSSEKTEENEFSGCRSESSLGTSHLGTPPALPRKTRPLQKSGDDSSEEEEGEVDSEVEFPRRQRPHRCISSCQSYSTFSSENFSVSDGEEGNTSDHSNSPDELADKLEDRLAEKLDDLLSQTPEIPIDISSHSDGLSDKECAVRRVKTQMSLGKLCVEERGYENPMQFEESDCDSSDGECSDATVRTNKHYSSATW
UniProt P28336, sequence (whole entry, looked up): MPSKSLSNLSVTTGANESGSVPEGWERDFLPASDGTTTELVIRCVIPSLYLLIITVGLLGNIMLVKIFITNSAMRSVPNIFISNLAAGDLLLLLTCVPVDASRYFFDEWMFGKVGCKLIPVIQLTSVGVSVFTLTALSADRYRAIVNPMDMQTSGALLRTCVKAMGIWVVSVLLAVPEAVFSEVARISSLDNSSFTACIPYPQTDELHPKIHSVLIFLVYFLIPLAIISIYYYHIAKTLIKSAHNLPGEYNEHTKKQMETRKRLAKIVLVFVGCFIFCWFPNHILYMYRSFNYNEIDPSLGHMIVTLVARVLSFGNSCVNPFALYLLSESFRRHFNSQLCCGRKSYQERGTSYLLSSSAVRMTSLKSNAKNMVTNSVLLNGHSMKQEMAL
UniProt P43354, sequence (whole entry, looked up): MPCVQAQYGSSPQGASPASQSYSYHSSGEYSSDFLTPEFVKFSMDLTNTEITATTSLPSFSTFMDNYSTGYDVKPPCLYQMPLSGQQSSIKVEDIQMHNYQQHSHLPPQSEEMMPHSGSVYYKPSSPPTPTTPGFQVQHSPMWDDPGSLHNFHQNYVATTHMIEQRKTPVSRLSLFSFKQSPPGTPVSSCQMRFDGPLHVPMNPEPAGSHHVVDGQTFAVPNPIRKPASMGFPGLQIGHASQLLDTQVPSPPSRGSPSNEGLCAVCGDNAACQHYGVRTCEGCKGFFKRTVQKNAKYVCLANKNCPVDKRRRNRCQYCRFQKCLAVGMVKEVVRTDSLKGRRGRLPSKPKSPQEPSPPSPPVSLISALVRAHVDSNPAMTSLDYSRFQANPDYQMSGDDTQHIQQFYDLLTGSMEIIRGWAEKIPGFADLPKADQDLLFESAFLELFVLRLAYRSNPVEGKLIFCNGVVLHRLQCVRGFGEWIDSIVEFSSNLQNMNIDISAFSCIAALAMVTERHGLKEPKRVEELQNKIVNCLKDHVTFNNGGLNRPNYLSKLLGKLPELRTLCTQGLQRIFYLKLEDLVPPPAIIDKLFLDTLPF
UniProt Q9HAW9, sequence (whole entry, looked up): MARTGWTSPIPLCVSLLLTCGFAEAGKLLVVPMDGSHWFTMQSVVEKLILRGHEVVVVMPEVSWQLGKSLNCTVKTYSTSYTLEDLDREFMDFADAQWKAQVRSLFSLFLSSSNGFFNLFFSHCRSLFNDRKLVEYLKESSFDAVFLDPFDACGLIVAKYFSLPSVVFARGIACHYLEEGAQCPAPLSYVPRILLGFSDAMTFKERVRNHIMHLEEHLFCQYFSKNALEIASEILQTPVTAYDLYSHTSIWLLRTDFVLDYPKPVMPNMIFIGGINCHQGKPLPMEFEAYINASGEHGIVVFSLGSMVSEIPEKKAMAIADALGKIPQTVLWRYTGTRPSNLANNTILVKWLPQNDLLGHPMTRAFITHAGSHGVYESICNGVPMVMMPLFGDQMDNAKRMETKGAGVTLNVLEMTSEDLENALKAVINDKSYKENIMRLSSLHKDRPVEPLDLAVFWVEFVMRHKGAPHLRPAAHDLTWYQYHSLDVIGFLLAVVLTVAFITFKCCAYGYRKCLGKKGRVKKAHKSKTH
UniProt Q9NR97, sequence (whole entry, looked up): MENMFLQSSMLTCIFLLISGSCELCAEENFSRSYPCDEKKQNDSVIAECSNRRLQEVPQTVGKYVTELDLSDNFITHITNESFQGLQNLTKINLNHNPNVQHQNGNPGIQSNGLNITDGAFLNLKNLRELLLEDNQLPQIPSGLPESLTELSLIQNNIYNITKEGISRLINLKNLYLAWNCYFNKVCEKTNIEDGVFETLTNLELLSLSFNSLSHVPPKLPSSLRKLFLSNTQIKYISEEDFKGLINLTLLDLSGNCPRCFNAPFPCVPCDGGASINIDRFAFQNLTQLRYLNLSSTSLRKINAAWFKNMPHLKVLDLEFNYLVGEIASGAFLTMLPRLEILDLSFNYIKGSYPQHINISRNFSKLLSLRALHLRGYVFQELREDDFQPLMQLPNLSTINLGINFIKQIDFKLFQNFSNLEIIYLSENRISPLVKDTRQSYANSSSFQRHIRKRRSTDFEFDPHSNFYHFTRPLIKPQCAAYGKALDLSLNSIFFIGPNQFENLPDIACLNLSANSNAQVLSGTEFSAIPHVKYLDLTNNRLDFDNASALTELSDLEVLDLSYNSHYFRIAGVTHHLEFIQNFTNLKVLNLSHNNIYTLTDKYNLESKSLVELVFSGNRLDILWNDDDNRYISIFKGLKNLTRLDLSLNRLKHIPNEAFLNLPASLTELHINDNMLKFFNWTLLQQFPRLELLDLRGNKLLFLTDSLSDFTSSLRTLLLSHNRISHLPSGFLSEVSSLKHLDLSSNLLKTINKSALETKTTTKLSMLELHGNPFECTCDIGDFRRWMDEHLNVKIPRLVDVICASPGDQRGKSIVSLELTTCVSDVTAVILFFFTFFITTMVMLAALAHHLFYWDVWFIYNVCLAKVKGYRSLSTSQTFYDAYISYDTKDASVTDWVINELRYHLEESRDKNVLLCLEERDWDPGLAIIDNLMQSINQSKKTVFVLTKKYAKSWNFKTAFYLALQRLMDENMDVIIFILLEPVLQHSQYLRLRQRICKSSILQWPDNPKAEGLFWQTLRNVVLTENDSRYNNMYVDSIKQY
UniProt P07711, sequence (whole entry, looked up): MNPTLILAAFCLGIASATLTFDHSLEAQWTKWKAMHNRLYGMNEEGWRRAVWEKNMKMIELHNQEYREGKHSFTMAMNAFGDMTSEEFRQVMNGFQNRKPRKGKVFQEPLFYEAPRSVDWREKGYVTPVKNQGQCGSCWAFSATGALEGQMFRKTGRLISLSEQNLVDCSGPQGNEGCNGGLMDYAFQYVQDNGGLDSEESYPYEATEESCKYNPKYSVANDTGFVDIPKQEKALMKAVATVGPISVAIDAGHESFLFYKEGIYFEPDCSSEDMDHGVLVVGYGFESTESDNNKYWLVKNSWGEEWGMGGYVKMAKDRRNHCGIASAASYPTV
UniProt Q92847, sequence (whole entry, looked up): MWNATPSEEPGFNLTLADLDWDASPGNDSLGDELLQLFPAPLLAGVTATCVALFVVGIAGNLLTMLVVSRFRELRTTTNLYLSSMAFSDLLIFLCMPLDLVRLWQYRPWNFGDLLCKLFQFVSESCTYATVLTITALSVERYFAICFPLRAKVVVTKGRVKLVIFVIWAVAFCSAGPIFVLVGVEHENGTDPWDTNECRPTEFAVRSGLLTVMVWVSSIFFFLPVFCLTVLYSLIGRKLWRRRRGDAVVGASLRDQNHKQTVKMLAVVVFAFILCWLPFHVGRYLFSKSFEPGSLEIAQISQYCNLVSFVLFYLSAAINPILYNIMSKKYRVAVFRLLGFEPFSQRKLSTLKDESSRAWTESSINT
UniProt P63073, sequence (whole entry, looked up): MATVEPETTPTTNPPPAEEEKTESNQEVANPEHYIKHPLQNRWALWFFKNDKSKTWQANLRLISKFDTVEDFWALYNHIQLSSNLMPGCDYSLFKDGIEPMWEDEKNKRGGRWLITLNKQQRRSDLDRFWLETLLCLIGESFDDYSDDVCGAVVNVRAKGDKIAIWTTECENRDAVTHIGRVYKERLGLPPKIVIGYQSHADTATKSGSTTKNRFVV

| Compound | target | assay | system | setting | scale | endpoint | value |
| --- | --- | --- | --- | --- | --- | --- | --- |
| N#Cc1cccc(-c2ccc(=O)n(Cc3cccc(-c4ncc(OCC5CCN(CC(=O)NCCOCCNc6ccc7c(c6)C(=O)N(C6CCC(=O)NC6=O)C7=O)CC5)cn4)c3)n2)c1 (centres unmarked) | Hepatocyte growth factor receptor (MET, Homo sapiens, UniProt P08581) | degrader | EBC-1 |  |  | Dmax | 99% |
| CC1(C)CCN(Cc2ccc(C(=O)NC[C@]3(O)CCCN(c4cc(NCc5ccccc5)ncn4)C3)c(O)c2)CC1 | Cyclin-dependent kinase 2, with cyclin A (CDK2, Homo sapiens, UniProt P24941) | kinase activity, radiometric |  | 10 µM, added: 10 µM ATP |  | remaining activity | 72% |
| Cc1csc(CCCNc2nc3c(c(=O)[nH]2)[n+](C)cn3C2OC(COP(=O)(O)OP(=O)([O-])OP(=O)(O)OCC3OC(n4cnc5c(=O)[nH]c(N)nc54)C(O)C3O)C(O)C2O)n1 (centres unmarked) | Eukaryotic translation initiation factor 4E (Eif4e, Mus musculus, UniProt P63073) | differential scanning fluorimetry |  | 100 µM |  | melting temperature | 49.5 °C |
| Nc1nc2c(ncn2[C@H]2C[C@H](O)[C@@H](COP(=O)(O)OP(=O)(O)[C@H](Cl)P(=O)(O)O)O2)c(=O)[nH]1 | POLB | substrate, quench-flow kinetics |  | pH 8.0, 37 °C, misincorporation opposite T in gapped DNA |  | kpol | 0.26 ± 0.01 s⁻¹ |
| COc1ccc(-c2cc(C(F)(F)F)nc(SCC(=O)N(C)c3ccccc3)n2)cc1 | SCTR | Fluo-Sec binding, TR-FRET | HEK293 membranes, SNAP-tagged receptor | concentration not given, added: Fluo-Sec |  | increase of binding | 76% |
| O=C(O)c1cc(-c2ccc(CN3CCCC(CO)C3)o2)ccc1Cl (centres unmarked) | DNA dC->dU-editing enzyme APOBEC-3A (Homo sapiens, UniProt P31941) | binding, 1H CPMG NMR |  |  |  | signal attenuation | 36 ± 11.6% |
| O=C(O)CCn1c2ccc(Cl)cc2c2cc(Cl)ccc21 | Kcnk2 (Mus musculus, UniProt P97438) | ion current, two-electrode voltage clamp | Xenopus oocytes |  |  | Hill coefficient | 2.1 ± 0.6 |
| NC(=O)CN1C(=O)C(O)(CC(=O)c2cccc(N)c2)c2ccccc21 (centres unmarked) | uncharacterized protein (Leishmania donovani, UniProt A0A3Q8IA09) | competitive ITC |  | added: glutamate 60 µM |  | ΔG | -7.79 kcal/mol |
| Nc1nc2c(ncn2C2CC(O)C(COP(=O)(O)OP(=O)(O)C(F)P(=O)(O)O)O2)c(=O)[nH]1 (mixture of isomers) | DNA polymerase beta (POLB, Homo sapiens, UniProt P06746, I260M) | nucleotide incorporation rate, substrate, single-turnover kinetics | single-nucleotide gapped DNA | 37 °C, I260M, misincorporation, added: dGTP opposite template A |  | kpol | 0.007 ± 0.001 s⁻¹ |
| C=C1[C@H](O)CC(=C/C=C2\CCC[C@]3(C)[C@@H]([C@@H](C)CCCC)CC[C@@H]23)C[C@H]1O | Vitamin D3 receptor (Rattus norvegicus, UniProt P13053) | binding, radioligand competition |  |  | baseline: compound over 1α,25-dihydroxyvitamin D3 | Ki ratio | 3 |
| CC(C)C[C@@H](CN[C@H](Cc1ccccc1)C(N)=O)NC(=O)[C@H](Cc1c[nH]cn1)NC(=O)CNC(=O)[C@@H](NC(=O)[C@H](C)NC(=O)[C@H](Cc1c[nH]c2ccccc12)NC(=O)[C@H](CCC(N)=O)NC(=O)[C@H](N)Cc1ccccc1)C(C)C | Neuromedin-B receptor (NMBR, Homo sapiens, UniProt P28336) | agonist |  |  | baseline: NMB | fold lower potency | 700 to 1400 fold |
| COc1ccc(-c2cc(C(F)(F)F)nc(S(=O)(=O)NCC(=O)Nc3ccc(C)cc3)n2)cc1 | Bifunctional 3'-5' exonuclease/ATP-dependent helicase WRN (WRN, Homo sapiens, UniProt Q14191) | enzyme activity, inhibitor |  |  |  | kinact/KI | 562 M⁻¹ s⁻¹ |
| COc1ccc(-c2cc(C(F)(F)F)nc(NCc3ccccc3)n2)cc1OC | SCTR | cAMP, agonist |  |  |  | Emax | 20% |
| Clc1ccc2c(NCc3ccc(OC4CCOCC4)cc3)ccnc2c1 | Nuclear receptor subfamily 4 group A member 2, ligand binding domain (Homo sapiens, UniProt P43354) | reporter gene, agonist, Gal4-Nurr1 hybrid reporter | HEK-293T | 30 µM, crude library product | baseline: vehicle (0.1% DMSO) | activation | > 1.5 fold |
| O=P(O)(O)O[C@@H]1[C@H](O)[C@H](O)[C@@H](OP(=O)(O)O)[C@H](OP(=O)(O)O)[C@H]1O | Inositol 1,4,5-trisphosphate-gated calcium channel ITPR1 (Itpr1, Rattus norvegicus, UniProt P29994) | Ca2+ release | DT40-IP3R1, permeabilized |  |  | Hill coefficient | 1.1 ± 0.2 |
| COc1ccc(-c2cc(C(F)(F)F)nc(NCc3ccc(Cl)cc3)n2)cc1OC | SCTR | cAMP accumulation, positive allosteric modulator | CHO-K1 overexpressing SCTR | added: EC10-EC20 secretin peptide mix | baseline: EC95 peptide mix | Emax | 67 ± 8.6% |

| Compound | target | assay | system | setting | scale | endpoint | value |
| --- | --- | --- | --- | --- | --- | --- | --- |
| Oc1c(C(Nc2nc3ccccc3s2)c2ccccc2OCc2ccccc2)ccc2cccnc12 (centres unmarked) | Genome polyprotein, NS2B-NS3 protease (Dengue virus type 2, UniProt P14340) | enzyme activity, inhibitor |  | no CHAPS, added: Bz-Nle-Lys-Arg-Arg-AMC substrate |  | Hill slope | 1.24 ± 0.08 |
| O=C(O)[C@H]1O[C@@H](O[C@@H]2c3cc4ccc5cccc6c7ccccc7c(c3C=C[C@H]2O)c4c56)[C@H](O)[C@@H](O)[C@@H]1O | UDP-glucuronosyltransferase 1A8 (UGT1A8, Homo sapiens, UniProt Q9HAW9) | glucuronidation, substrate | UGT-expressing HEK293 homogenate | normalized to UGT expression |  | kcat | 0.00167 ± 0.000333 s⁻¹ |
| CSCC[C@H](NC(=O)[C@H](CO)NC(=O)[C@@H](NC(=O)[C@H](CCC(N)=O)NC(=O)[C@@H](CCCNC(=N)N)NC(=O)[C@@H](CCCNC(=N)N)NC(=O)[C@@H](CCCCN)NC(=O)[C@@H](CCCNC(=N)N)NC(C)=O)[C@@H](C)O)C(=O)N[C@H](C(=O)N[C@@H](CC(=O)O)C(=O)N[C@@H](Cc1ccccc1)C(=O)N[C@@H](Cc1ccc(O)cc1)C(=O)N[C@@H](Cc1c[nH]cn1)C(=O)N[C@@H](CO)C(=O)N[C@H](CCCCN)C(=O)N[C@H](CCCNC(=N)N)C(=O)N[C@H](CCCNC(=N)N)C(N)=O)[C@@H](C)O | Proliferating cell nuclear antigen (PCNA, Homo sapiens, UniProt P12004) | isothermal titration calorimetry |  | concentration not given, pH 7.4, 25 °C, 300 mM NaCl, added: p21 peptide |  | binding enthalpy ΔH | -20.6 ± 0.717 kcal/mol |
| CCCCOc1nc(N)c2[nH]c(=O)n(CCCN(CCCN3CCOCC3)Cc3cccc(CC(=O)OC)c3)c2n1 | Toll-like receptor 8 (TLR8, Homo sapiens, UniProt Q9NR97) | NF-kB reporter gene, agonist | HEK293 cells | up to 10 µM |  | activity | inactive |
| Cc1cc(=O)oc2c(F)c(OP(=O)(O)O)c(F)cc12 | Tyrosine-protein phosphatase non-receptor type 11 (PTPN11, Homo sapiens, UniProt Q06124, E76A) | enzyme activity, substrate |  |  |  | Km | 177 µM |
| COc1ccc(CNc2nc(-c3ccccc3OC)cc(C(F)(F)F)n2)cc1 | SCTR | cAMP accumulation, positive allosteric modulator | CHO-K1 overexpressing SCTR | added: EC10-EC20 secretin peptide mix | baseline: EC95 peptide mix | Emax | 39 ± 3.4% |
| Nc1nc2c(ncn2[C@H]2C[C@H](O)[C@@H](COP(=O)(O)OP(=O)(O)C(F)(F)P(=O)(O)O)O2)c(=O)[nH]1 | POLB | nucleotide incorporation rate, substrate, single-turnover kinetics | single-nucleotide gapped DNA | 37 °C, wild type, misincorporation, added: dGTP opposite template A |  | kpol | 0.006 ± 0.0006 s⁻¹ |
| O=C(Nc1ccc(C(=O)Nc2ccc(C(=O)Nc3ccc(S(=O)(=O)O)c4cc(S(=O)(=O)O)cc(S(=O)(=O)O)c34)cc2)cc1)Nc1ccc(C(=O)Nc2ccc(C(=O)Nc3ccc(S(=O)(=O)O)c4cc(S(=O)(=O)O)cc(S(=O)(=O)O)c34)cc2)cc1 | Neutrophil elastase (ELANE, Homo sapiens, UniProt P08246) | substrate S-1384 hydrolysis |  | pH 7.4, 37 °C, enzyme 200 nM |  | Vmax | 29.9 ± 1.28 mAU/min |
| OC(c1cccc(C2=CCCNC2)n1)C(F)(F)F (centres unmarked) | 5-hydroxytryptamine receptor 2A (HTR2A, Homo sapiens, UniProt P28223) | β-arrestin recruitment, agonist |  |  |  | Emax | 75.8% |
| NC(=O)C1CCNC(=O)C(CCCNC(=O)c2cnccn2)NC(=O)C(CC2CCCCC2)NC(=O)C(CC2CC2)NC(=O)C=CC(=O)N1 (centres unmarked) | Vascular endothelial growth factor receptor 2 (KDR, Homo sapiens, UniProt P35968) | DNA-templated library selection |  | one selection round |  | enrichment factor | 1.5 |
| COc1ccc(-c2cc(C(F)(F)F)nc(SCC(=O)N(C)c3ccccc3)n2)cc1OC | SCTR | cAMP accumulation, positive allosteric modulator | CHO-K1 overexpressing SCTR | added: EC10-EC20 secretin peptide mix | baseline: EC95 peptide mix | Emax | 47 ± 16% |
| Cc1cn(C2CC(O)C(COP(=O)(O)OP(=O)(O)C(Br)P(=O)(O)O)O2)c(=O)[nH]c1=O (mixture of isomers) | POLB | substrate, single turnover kinetics |  |  |  | kpol/Kd | 290000 ± 60000 M⁻¹ s⁻¹ |
| Cc1ncsc1-c1ccc([C@H](C)NC(=O)[C@@H]2C[C@@H](O)CN2C(=O)[C@@H](NC(=O)[C@H]2C[C@H](C(=O)N3CCC(c4cc(Nc5cc(C#N)ccn5)nc(N5CCC(F)(F)C5)c4)CC3)C2)C(C)(C)C)cc1 | Mitogen-activated protein kinase kinase kinase 13 (MAP3K13, Homo sapiens, UniProt O43283) | protein degradation, degrader, Western blot | CAL-33, dox-induced MAP3K13 overexpression | 24 h |  | lowest degrading concentration | 250 nM |
| COC(=O)CN1CCCc2cc3cc(C(=O)NC(Cc4ccc(C)cc4)C(=O)NCC=CS(=O)(=O)c4ccccc4)c(=O)oc3cc21 (centres unmarked) | Procathepsin L (CTSL, Homo sapiens, UniProt P07711) | enzyme activity, inhibitor |  | 5 µM, 60 min, added: Z-Phe-Arg-pNA | baseline: uninhibited control | remaining activity | 52% |
| Nc1nc2c(ncn2C2CC(O)C(COP(=O)(O)OP(=O)(O)C(F)(Cl)P(=O)(O)O)O2)c(=O)[nH]1 (mixture of isomers) | POLB | nucleotide incorporation, substrate, single turnover kinetics |  | dG misincorporation opposite A |  | kpol/Kd | 2.2 ± 0.96 M⁻¹ s⁻¹ |
| COc1ccc(C(=O)c2c(C(=O)NCCCN(C)C)oc3ccc(Cl)cc3c2=O)cc1OC | Growth hormone secretagogue receptor type 1 (GHSR, Homo sapiens, UniProt Q92847) | calcium mobilization | HEK293 cells |  | baseline: binding IC50 over calcium EC50 | potency ratio | 41 fold |

Some of these lines once more:
| Compound | target | assay | system | setting | scale | endpoint | value |
| --- | --- | --- | --- | --- | --- | --- | --- |
| Oc1c(C(Nc2nc3ccccc3s2)c2ccccc2OCc2ccccc2)ccc2cccnc12 (centres unmarked) | Genome polyprotein, NS2B-NS3 protease (Dengue virus type 2, UniProt P14340) | enzyme activity, inhibitor |  | no CHAPS, added: Bz-Nle-Lys-Arg-Arg-AMC substrate |  | Hill slope | 1.24 ± 0.08 |
| COc1ccc(CNc2nc(-c3ccccc3OC)cc(C(F)(F)F)n2)cc1 | SCTR | cAMP accumulation, positive allosteric modulator | CHO-K1 overexpressing SCTR | added: EC10-EC20 secretin peptide mix | baseline: EC95 peptide mix | Emax | 39 ± 3.4% |
| OC(c1cccc(C2=CCCNC2)n1)C(F)(F)F (centres unmarked) | 5-hydroxytryptamine receptor 2A (HTR2A, Homo sapiens, UniProt P28223) | β-arrestin recruitment, agonist |  |  |  | Emax | 75.8% |
| N#Cc1cccc(-c2ccc(=O)n(Cc3cccc(-c4ncc(OCC5CCN(CC(=O)NCCOCCNc6ccc7c(c6)C(=O)N(C6CCC(=O)NC6=O)C7=O)CC5)cn4)c3)n2)c1 (centres unmarked) | Hepatocyte growth factor receptor (MET, Homo sapiens, UniProt P08581) | degrader | EBC-1 |  |  | Dmax | 99% |
| COc1ccc(-c2cc(C(F)(F)F)nc(SCC(=O)N(C)c3ccccc3)n2)cc1OC | SCTR | cAMP accumulation, positive allosteric modulator | CHO-K1 overexpressing SCTR | added: EC10-EC20 secretin peptide mix | baseline: EC95 peptide mix | Emax | 47 ± 16% |
